Published values of several laboratories.
Compare with care: the assays were run in different laboratories. Numbers after ± are the reported error.
Mode: agonist
CNR1: Cannabinoid receptor 1 (CNR1, Homo sapiens, UniProt P21554)
Chain of UniProt P21554 (whole entry, looked up): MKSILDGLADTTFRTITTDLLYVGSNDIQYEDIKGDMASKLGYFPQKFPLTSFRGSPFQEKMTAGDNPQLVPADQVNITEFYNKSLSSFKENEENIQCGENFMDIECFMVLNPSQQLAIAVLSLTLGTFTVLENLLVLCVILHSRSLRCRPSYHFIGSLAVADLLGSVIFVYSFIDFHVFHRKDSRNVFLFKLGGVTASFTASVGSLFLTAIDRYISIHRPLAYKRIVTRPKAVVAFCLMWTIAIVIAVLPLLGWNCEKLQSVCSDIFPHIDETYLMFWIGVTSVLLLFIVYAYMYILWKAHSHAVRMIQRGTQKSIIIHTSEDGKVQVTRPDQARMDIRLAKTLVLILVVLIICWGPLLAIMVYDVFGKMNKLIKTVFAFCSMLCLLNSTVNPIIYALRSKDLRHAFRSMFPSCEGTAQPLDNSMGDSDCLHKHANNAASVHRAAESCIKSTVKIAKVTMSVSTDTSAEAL
GLP1R: Glucagon-like peptide 1 receptor (GLP1R, Homo sapiens, UniProt P43220)
Chain of UniProt P43220 (whole entry, looked up): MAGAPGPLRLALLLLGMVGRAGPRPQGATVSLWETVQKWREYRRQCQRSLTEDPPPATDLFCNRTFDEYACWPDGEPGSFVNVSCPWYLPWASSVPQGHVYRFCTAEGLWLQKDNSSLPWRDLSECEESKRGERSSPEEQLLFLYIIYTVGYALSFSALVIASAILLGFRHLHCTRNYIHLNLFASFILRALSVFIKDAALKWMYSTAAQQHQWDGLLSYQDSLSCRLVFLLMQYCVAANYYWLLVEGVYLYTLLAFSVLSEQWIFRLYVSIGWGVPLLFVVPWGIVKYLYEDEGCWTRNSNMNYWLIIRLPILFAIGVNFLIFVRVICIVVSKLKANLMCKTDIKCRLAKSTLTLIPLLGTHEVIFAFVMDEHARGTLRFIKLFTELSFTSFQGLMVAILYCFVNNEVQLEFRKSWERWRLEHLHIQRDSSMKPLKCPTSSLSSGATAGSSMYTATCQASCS
Chain of UniProt Q9UKP6 (whole entry, unmodified, looked up): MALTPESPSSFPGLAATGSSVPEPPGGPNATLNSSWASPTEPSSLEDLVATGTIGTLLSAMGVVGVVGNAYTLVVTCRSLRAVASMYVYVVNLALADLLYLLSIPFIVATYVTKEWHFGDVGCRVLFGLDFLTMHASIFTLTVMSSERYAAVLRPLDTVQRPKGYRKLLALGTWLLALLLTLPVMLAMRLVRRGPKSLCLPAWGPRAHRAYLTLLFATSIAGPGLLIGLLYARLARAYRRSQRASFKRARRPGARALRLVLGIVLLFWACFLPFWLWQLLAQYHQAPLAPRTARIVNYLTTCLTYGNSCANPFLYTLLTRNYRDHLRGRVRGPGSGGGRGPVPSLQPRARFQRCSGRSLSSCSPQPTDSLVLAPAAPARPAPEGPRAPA
Chain of UniProt Q704Y3 (whole entry, unmodified, looked up): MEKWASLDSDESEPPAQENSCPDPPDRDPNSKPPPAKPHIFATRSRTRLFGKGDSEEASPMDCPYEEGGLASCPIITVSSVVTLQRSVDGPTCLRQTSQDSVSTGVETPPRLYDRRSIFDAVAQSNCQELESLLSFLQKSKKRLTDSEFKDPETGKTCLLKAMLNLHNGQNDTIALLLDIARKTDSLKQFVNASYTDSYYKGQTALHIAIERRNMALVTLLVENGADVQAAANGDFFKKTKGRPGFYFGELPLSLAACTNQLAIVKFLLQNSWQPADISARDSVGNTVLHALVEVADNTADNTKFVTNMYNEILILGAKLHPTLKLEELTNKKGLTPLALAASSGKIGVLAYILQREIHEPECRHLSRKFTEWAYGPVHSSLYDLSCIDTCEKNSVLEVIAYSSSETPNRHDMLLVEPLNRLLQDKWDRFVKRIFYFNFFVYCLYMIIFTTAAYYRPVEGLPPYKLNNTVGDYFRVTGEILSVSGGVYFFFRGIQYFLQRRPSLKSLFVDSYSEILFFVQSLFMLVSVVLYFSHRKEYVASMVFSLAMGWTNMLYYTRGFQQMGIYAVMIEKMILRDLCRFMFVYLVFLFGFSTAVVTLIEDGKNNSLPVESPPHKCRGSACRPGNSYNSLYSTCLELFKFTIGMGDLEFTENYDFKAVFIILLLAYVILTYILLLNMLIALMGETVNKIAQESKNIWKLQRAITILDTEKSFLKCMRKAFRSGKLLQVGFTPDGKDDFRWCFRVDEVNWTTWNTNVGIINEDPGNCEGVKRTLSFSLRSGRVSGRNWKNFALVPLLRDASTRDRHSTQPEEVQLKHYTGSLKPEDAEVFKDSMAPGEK
Chain of UniProt P41143 (whole entry, unmodified, looked up): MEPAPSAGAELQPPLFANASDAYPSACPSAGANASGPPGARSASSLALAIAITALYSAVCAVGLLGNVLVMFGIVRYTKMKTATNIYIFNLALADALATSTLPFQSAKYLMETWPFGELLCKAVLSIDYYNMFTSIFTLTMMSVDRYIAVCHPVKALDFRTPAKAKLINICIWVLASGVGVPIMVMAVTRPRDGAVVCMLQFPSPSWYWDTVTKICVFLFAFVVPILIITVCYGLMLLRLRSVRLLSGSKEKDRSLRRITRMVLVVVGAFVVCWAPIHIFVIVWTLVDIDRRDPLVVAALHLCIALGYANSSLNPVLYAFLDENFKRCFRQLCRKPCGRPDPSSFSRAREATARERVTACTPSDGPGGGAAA
Chain of UniProt Q9HB89 (whole entry, looked up): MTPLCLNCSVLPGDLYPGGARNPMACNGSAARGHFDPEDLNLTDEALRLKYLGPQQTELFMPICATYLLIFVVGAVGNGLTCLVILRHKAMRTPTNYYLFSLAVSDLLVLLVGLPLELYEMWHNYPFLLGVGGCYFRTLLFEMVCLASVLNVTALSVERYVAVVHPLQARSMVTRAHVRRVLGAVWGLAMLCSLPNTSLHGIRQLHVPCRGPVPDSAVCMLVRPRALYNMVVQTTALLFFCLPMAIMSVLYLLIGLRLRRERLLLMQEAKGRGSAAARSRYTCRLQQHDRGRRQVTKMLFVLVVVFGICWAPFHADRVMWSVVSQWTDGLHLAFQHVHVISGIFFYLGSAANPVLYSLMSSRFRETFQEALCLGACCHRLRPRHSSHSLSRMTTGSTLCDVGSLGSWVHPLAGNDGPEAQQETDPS
Chain of UniProt Q9JJ74 (whole entry, looked up): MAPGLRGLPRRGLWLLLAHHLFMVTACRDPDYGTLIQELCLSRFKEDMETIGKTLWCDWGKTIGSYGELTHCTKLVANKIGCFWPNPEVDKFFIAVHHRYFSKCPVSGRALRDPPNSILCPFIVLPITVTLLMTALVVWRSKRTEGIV
Chain of UniProt Q8TDU6 (whole entry, looked up): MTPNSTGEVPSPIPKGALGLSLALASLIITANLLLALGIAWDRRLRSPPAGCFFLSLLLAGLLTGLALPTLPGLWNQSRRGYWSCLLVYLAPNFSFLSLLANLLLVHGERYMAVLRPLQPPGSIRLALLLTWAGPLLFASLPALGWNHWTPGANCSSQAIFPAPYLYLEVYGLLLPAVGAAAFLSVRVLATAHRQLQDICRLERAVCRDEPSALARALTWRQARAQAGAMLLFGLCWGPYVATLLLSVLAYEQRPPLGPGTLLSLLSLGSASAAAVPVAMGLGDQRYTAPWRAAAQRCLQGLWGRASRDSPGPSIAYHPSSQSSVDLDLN
Chain of UniProt P47871 (whole entry, looked up): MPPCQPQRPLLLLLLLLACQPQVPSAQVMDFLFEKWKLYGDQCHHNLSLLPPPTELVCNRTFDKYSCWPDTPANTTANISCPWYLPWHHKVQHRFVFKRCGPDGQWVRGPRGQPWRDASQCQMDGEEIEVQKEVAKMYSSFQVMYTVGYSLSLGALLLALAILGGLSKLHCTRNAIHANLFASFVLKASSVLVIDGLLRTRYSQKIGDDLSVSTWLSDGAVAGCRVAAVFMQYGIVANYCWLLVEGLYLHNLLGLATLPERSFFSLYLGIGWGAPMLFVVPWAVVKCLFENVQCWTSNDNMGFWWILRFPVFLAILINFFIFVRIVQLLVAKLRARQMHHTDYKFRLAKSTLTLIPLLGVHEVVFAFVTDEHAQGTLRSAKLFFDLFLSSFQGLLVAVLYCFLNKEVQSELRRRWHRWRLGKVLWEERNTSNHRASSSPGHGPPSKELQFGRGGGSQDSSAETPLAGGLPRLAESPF
Chain of UniProt P32214 (whole entry, looked up): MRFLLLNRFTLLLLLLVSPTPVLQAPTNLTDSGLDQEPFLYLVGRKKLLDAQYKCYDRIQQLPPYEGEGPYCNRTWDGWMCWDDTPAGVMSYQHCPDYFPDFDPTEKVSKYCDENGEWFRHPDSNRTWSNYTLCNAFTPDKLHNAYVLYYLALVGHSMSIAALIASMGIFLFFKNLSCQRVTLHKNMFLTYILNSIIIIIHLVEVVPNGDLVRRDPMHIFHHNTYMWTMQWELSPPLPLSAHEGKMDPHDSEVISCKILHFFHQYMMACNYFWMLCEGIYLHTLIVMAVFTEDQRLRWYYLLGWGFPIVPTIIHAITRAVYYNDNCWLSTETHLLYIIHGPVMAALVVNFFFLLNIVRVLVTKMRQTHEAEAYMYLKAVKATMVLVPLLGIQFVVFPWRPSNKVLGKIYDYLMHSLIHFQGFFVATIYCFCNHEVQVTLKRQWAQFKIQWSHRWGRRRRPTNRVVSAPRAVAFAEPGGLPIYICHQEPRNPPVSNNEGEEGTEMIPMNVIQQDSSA

`CCCCCn1ccc(C(=O)NC(C)(C)c2cccc(C)c2)n1` gave an EC50 of over 10000 nM (CNR1; calcium signal).
`CCCCC/C=C\C/C=C\C/C=C\C/C=C\CCCC(=O)NCCc1ccc(O)c(O)c1` gave an EC50 of 80 ± 30 nM (Trpv1 (Mus musculus, UniProt Q704Y3, D577E); ion current, whole-cell patch clamp; 24 °C, D577E, +80 mV).
`CC[C@H](C)[C@H](NC(=O)[C@H](Cc1ccccc1)NC(=O)[C@H](CCC(=O)O)NC(=O)[C@H](CCCCN)NC(=O)[C@H](C)NC(=O)[C@H](C)NC(=O)[C@H](CCC(N)=O)NC(=O)CNC(=O)[C@H](CCC(=O)O)NC(=O)[C@H](CC(C)C)NC(=O)[C@H](Cc1ccc(O)cc1)NC(=O)[C@H]1CNC[C@@H]1NC(=O)[C@H](CO)NC(=O)C(C)(C)NC(=O)[C@H](CC(=O)O)NC(=O)[C@H](CO)NC(=O)[C@@H](NC(=O)[C@H](Cc1ccccc1)NC(=O)[C@@H](NC(=O)CNC(=O)[C@H](CCC(=O)O)NC(=O)[C@H](C)NC(=O)[C@@H](N)Cc1c[nH]cn1)[C@@H](C)O)[C@@H](C)O)C(=O)N[C@@H](C)C(=O)N[C@@H](Cc1c[nH]c2ccccc12)C(=O)N[C@@H](CC(C)C)C(=O)N[C@H](C(=O)N[C@@H](CCCCN)C(=O)NCC(=O)N[C@@H](CCCNC(=N)N)C(N)=O)C(C)C` has an EC50 of 4.9 nM (GLP1R; β-arrestin-1 recruitment, BRET; HEK293FT with GRK5).
For `CCCCCn1ccc(C(=O)NC(C)(C)c2ccccc2C)n1`, the EC50 was 423 nM (CNR1; calcium signal).
`O=C(O)CCn1c(=O)oc2cc(Cl)c(Cl)cc21` gave an EC50 of 20000 nM (AHR (Homo sapiens, UniProt P35869)).
`CC(CCC(=O)NCC(=O)O)C1CCC2C3C(O)CC4CC(OS(=O)(=O)O)CCC4(C)C3CC(O)C12C` (stereo not drawn) has an EC50 of over 200000 nM (GPBAR1 (Homo sapiens, UniProt Q8TDU6)).
`CC(C)[C@H](NC(=O)[C@@H]1CSSC(C)(C)[C@H](NC(=O)[C@@H](N)CC(=O)O)C(=O)N[C@@H](Cc2ccccc2)C(=O)N[C@@H](Cc2c[nH]c3ccccc23)C(=O)N[C@@H](CCCCN)C(=O)N[C@@H](Cc2ccc(O)cc2)C(=O)N1)C(=O)O` gave an EC50 of 25.1 nM (UTS2R (Homo sapiens, UniProt Q9UKP6, Y305A); IP1 accumulation, HTRF; HEK293T; 1 h, 37 °C, Y305A mutant, 7.43).
The EC50 of `CCCCCCCCCCCCCCCCCC(=O)NC[C@H]1CC[C@H](C(=O)N[C@@H](CCC(=O)NCCCOCCOCCOCCCNC(=O)COCC(=O)N[C@@H](Cc2ccc(O)cc2)C(=O)NC(C)(Cc2ccccc2)C(=O)N[C@@H](CC(C)C)C(=O)N[C@@H](CCCC)C(=O)N[C@@H](CCCNC(=N)N)C(=O)N2CCC[C@H]2C(=O)N[C@@H](CCCNC(=N)NC)C(=O)N[C@@H](CC(N)=O)C(N)=O)C(=O)O)CC1` (stereo partly drawn) is reported as over 10000 nM (NMUR1 (Homo sapiens, UniProt Q9HB89); β-arrestin recruitment).
For `CCCCCn1ccc(C(=O)NC(C)(C)c2ccc(-c3nn[nH]n3)cc2)n1`, the EC50 was over 10000 nM (CNR1; calcium signal).
The EC50 of `CC[C@H](C)[C@H](NC(=O)[C@H](Cc1ccccc1)NC(=O)[C@H](CCC(=O)O)NC(=O)[C@H](CCCCN)NC(=O)[C@H](C)NC(=O)[C@H](C)NC(=O)[C@H](CCC(N)=O)NC(=O)CNC(=O)[C@H](CCC(=O)O)NC(=O)[C@H](CC(C)C)NC(=O)[C@H](Cc1ccc(O)cc1)NC(=O)[C@H](CO)NC(=O)[C@H](CO)NC(=O)[C@@H](NC(=O)[C@H](CC(=O)O)NC(=O)[C@H](CO)NC(=O)[C@@H](NC(=O)CN(C[C@@H](NC(=O)CNC(=O)CN(C[C@H](C)NC(=O)[C@H](Cc1c[nH]cn1)NC(C)=O)S(=O)(=O)c1ccc(C(=O)O)cc1)[C@H](C)O)S(=O)(=O)Cc1ccccc1)[C@@H](C)O)C(C)C)C(=O)N[C@@H](C)C(=O)N[C@@H](Cc1c[nH]c2ccccc12)C(=O)N[C@@H](CC(C)C)C(=O)N[C@H](C(=O)N[C@@H](CCCCN)CN(CC(=O)N[C@@H](CCCNC(=N)N)C(=O)N[C@@H](CCCCN)CN(CC(N)=O)S(C)(=O)=O)S(C)(=O)=O)C(C)C` is reported as over 1000 nM (GLP1R; reporter gene, luciferase).
`CC[C@H](C)[C@@H]1NC(=O)[C@H](CC(N)=O)NC(=O)[C@@H]2CCCN2C(=O)[C@@H](NC(=O)CN(CC(N)=O)C(=O)[C@@H](N)CCC(N)=O)COC(=O)[C@H](CCSC)NC(=O)[C@H](Cc2c[nH]c3ccccc23)NC(=O)[C@H](CCC(N)=O)NC(=O)CNC(=O)[C@H](Cc2ccccc2)NC1=O` gave an EC50 of over 10000 nM (Fsr quorum sensing protein (Enterococcus faecalis, UniProt A0ACD6TCR9); Fsr quorum sensing, β-galactosidase reporter).
`CCCCCCCCCCCCCCCC(=O)N[C@@H](CCC(=O)NCCCC[C@H](NC(=O)[C@H](CC(=O)O)NC(=O)[C@H](CO)NC(=O)[C@@H](NC(=O)[C@H](Cc1ccccc1)NC(=O)[C@@H](NC(=O)CNC(=O)[C@H](CCC(N)=O)NC(=O)[C@H](C)NC(=O)[C@H](Cc1c[nH]cn1)NCC(F)(F)F)[C@@H](C)O)[C@@H](C)O)C(=O)N[C@@H](CO)C(=O)N[C@@H](CCCCN)C(=O)N[C@@H](Cc1ccc(O)cc1)C(=O)N[C@@H](CC(C)C)C(=O)N[C@@H](CC(=O)O)C(=O)N[C@@H](CCC(=O)O)C(=O)N[C@@H](CCCNC(=N)N)C(=O)N[C@@H](C)C(=O)N[C@@H](C)C(=O)N[C@@H](CCC(N)=O)C(=O)N[C@@H](CC(=O)O)C(=O)N[C@@H](Cc1ccccc1)C(=O)N[C@H](C(=O)N[C@@H](CCC(N)=O)C(=O)N[C@@H](Cc1c[nH]c2ccccc12)C(=O)N[C@@H](CC(C)C)C(=O)N[C@@H](CC(C)C)C(=O)N[C@@H](CC(=O)O)C(=O)NCC(=O)NCC(=O)N1CCC[C@H]1C(=O)N[C@@H](CO)C(=O)N[C@@H](CO)C(=O)NCC(=O)N[C@@H](C)C(=O)N1CCC[C@H]1C(=O)N1CCC[C@H]1C(=O)N1CCC[C@H]1C(=O)N[C@@H](CO)C(N)=O)C(C)C)C(=O)O` has an EC50 of 0.00398 nM (Glucagon receptor (GCGR, Homo sapiens, UniProt P47871); reporter gene, luciferase).
With `CC(C)C[C@H](NC(=O)[C@H](Cc1ccc(O)cc1)NC(=O)[C@H](CO)NC(=O)[C@H](CO)NC(=O)[C@@H](NC(=O)[C@H](CC(=O)O)NC(=O)[C@H](CO)NC(=O)[C@@H](NC(=O)[C@H](Cc1ccccc1)NC(=O)[C@@H](NC(=O)CNC(=O)[C@H](CCC(=O)O)NC(=O)[C@H](C)NC(=O)[C@@H](N)Cc1c[nH]cn1)[C@@H](C)O)[C@@H](C)O)C(C)C)C(=O)N[C@@H](CCC(=O)O)C(=O)NCC(=O)N[C@@H](CCC(N)=O)C(=O)N[C@@H](C)C(=O)N[C@@H](C)C(=O)N[C@@H](CCCCN)C(=O)N[C@@H](CCC(=O)O)C(=O)N[C@@H](Cc1ccccc1)CN(CC(=O)N[C@@H](C)C(=O)N[C@@H](Cc1c[nH]c2ccccc12)CN(CC(=O)N[C@H](C(=O)N[C@@H](CCCCN)CN(CC(=O)N[C@@H](CCCNC(=N)N)C(=O)N[C@@H](CCCCN)CN(CC(N)=O)S(C)(=O)=O)S(C)(=O)=O)C(C)C)S(=O)(=O)CC(C)C)S(=O)(=O)CC(C)C` the EC50 was over 1000 nM (GLP1R; reporter gene, luciferase).
With `CC[C@H](C)[C@H](NC(=O)[C@H](C)NC(=O)CNC(=O)[C@H](Cc1ccccc1)NC(=O)[C@H](CC(N)=O)NC(=O)[C@H](CC(N)=O)NC(=O)[C@H](CO)NC(=O)[C@H](CO)NC(=O)[C@H](Cc1c[nH]cn1)NC(=O)[C@@H](NC(=O)[C@H](CC(C)C)NC(=O)[C@H](Cc1ccccc1)NC(=O)[C@H](CC(N)=O)NC(=O)[C@H](C)NC(=O)[C@H](CC(C)C)NC(=O)[C@H](CCCNC(=N)N)NC(=O)[C@H](CCC(N)=O)NC(=O)[C@@H](NC(=O)[C@H](C)NC(=O)[C@@H]1CSSC[C@H](NC(=O)[C@H](CCCCN)NC(=O)[C@H](CCCNC(=N)N)NC(=O)[C@H](CCCCN)NC(=O)[C@H](CCC(=O)O)NC(=O)[C@@H](NC(=O)[C@H](CCC(N)=O)NC(=O)[C@H](Cc2c[nH]cn2)NC(=O)[C@H](CO)NC(=O)[C@H](CCC(=O)O)NC(=O)[C@@H](NC(=O)[C@@H]2CCCN2C(=O)[C@@H](N)[C@@H](C)O)[C@@H](C)CC)C(C)C)C(=O)N[C@@H](CC(N)=O)C(=O)N[C@@H]([C@@H](C)O)C(=O)N[C@@H](C)C(=O)N[C@@H]([C@@H](C)O)C(=O)N1)[C@@H](C)O)C(C)C)C(=O)N[C@@H](CC(C)C)C(=O)N[C@@H](CO)C(=O)N[C@@H](CO)C(=O)N[C@H](C(=O)N[C@@H](CC(N)=O)C(=O)N[C@H](C(=O)NCC(=O)N[C@@H](CO)C(=O)N[C@@H](CC(N)=O)C(=O)N[C@H](C(=O)N[C@@H](Cc1ccc(O)cc1)C(N)=O)[C@@H](C)O)C(C)C)[C@@H](C)O` the EC50 was 8.71 nM (Calcr/Ramp1 (Rattus norvegicus, UniProt P32214+Q9JJ74); cAMP accumulation; COS-7, transfected).
`CC[C@H](C)[C@H](NC(=O)[C@H](Cc1ccccc1)NC(=O)[C@H](CCC(=O)O)NC(=O)[C@H](CCCCN)NC(=O)[C@H](C)NC(=O)[C@H](C)NC(=O)[C@H](CCC(N)=O)NC(=O)CNC(=O)[C@H](CCC(=O)O)NC(=O)[C@H](CC(C)C)NC(=O)[C@H](Cc1ccc(O)cc1)NC(=O)[C@H](CO)NC(=O)[C@H](CO)NC(=O)[C@@H](NC(=O)[C@H](CC(=O)O)NC(=O)[C@H](CO)NC(=O)[C@@H](NC(=O)[C@H](Cc1ccccc1)NC(=O)[C@@H](NC(=O)CNC(=O)[C@H](CCC(=O)O)NC(=O)CNC(=O)[C@@H](N)Cc1c[nH]cn1)[C@@H](C)O)[C@@H](C)O)C(C)C)C(=O)N[C@@H](C)C(=O)N[C@@H](Cc1c[nH]c2ccccc12)C(=O)N[C@@H](CC(C)C)C(=O)N[C@H](C(=O)N[C@@H](CCCCN)CN(CC(=O)N[C@@H](CCCNC(=N)N)C(=O)N[C@@H](CCCCN)CN(CC(N)=O)S(C)(=O)=O)S(C)(=O)=O)C(C)C` gave an EC50 of 0.06 nM (GLP1R; reporter gene, luciferase).
The EC50 of `Cc1cc(O)cc(C)c1C[C@H](N)C(=O)N[C@H](CCCNC(=N)N)C(=O)N[C@@H](Cc1ccccc1)C(=O)N(C)CC(=O)N(C)Cc1cc(C(F)(F)F)cc(C(F)(F)F)c1` is reported as over 4800 nM (OPRD1 (Homo sapiens, UniProt P41143, D128N)).
The EC50 of `CCCCCn1ccc(C(=O)NC(C)(C)c2cccc(C#N)c2)n1` is reported as over 10000 nM (CNR1; calcium signal).
With `CC[C@H](C)[C@H](NC(=O)[C@H](Cc1ccccc1)NC(=O)[C@H](CCC(=O)O)NC(=O)[C@H](CCCCN)NC(=O)[C@H](C)NC(=O)[C@H](C)NC(=O)[C@H](CCC(N)=O)NC(=O)CNC(=O)[C@H](CCC(=O)O)NC(=O)[C@H](CC(C)C)NC(=O)[C@H](Cc1ccc(O)cc1)NC(=O)[C@H](CO)NC(=O)[C@H](CO)NC(=O)[C@@H](NC(=O)[C@H](CC(=O)O)NC(=O)[C@H](CO)NC(=O)[C@@H](NC(=O)CN(C[C@@H](NC(=O)CNC(=O)CN(C[C@H](C)NC(=O)[C@@H](N)Cc1c[nH]cn1)S(=O)(=O)c1ccc(C(=O)O)cc1)[C@H](C)O)S(=O)(=O)Cc1ccccc1)[C@@H](C)O)C(C)C)C(=O)N[C@@H](C)C(=O)N[C@@H](Cc1c[nH]c2ccccc12)C(=O)N[C@@H](CC(C)C)C(=O)N[C@H](C(=O)N[C@@H](CCCCN)CN(CC(=O)N[C@@H](CCCNC(=N)N)C(=O)N[C@@H](CCCCN)CN(CC(N)=O)S(C)(=O)=O)S(C)(=O)=O)C(C)C` the EC50 was over 1000 nM (GLP1R; reporter gene, luciferase).

Some of these lines once more:
`O=C(O)CCn1c(=O)oc2cc(Cl)c(Cl)cc21` gave an EC50 of 20000 nM (AHR (Homo sapiens, UniProt P35869)).
`CC(CCC(=O)NCC(=O)O)C1CCC2C3C(O)CC4CC(OS(=O)(=O)O)CCC4(C)C3CC(O)C12C` (stereo not drawn) has an EC50 of over 200000 nM (GPBAR1 (Homo sapiens, UniProt Q8TDU6)).
`CC(C)[C@H](NC(=O)[C@@H]1CSSC(C)(C)[C@H](NC(=O)[C@@H](N)CC(=O)O)C(=O)N[C@@H](Cc2ccccc2)C(=O)N[C@@H](Cc2c[nH]c3ccccc23)C(=O)N[C@@H](CCCCN)C(=O)N[C@@H](Cc2ccc(O)cc2)C(=O)N1)C(=O)O` gave an EC50 of 25.1 nM (UTS2R (Homo sapiens, UniProt Q9UKP6, Y305A); IP1 accumulation, HTRF; HEK293T; 1 h, 37 °C, Y305A mutant, 7.43).
